Results gathered from unrelated publications.
Lines come from different studies, so protocols differ. ± gives the spread as reported.

CCCCCCCC(=O)NCCCC[C@H](NC(=O)CCCCCCC)C(=O)N[C@@H](CCCCNC(=O)CCCCCCC)C(=O)NCC(=O)NCC(=O)NCC(=O)N[C@@H](CS)C(=O)N[C@@H](CCCNC(=N)N)C(=O)N[C@@H](CCCCN)C(=O)N1CCC[C@H]1C(N)=O — MIC (Candida tropicalis; broth microdilution; CGMCC 2.197, RPMI-1640; 48 h, 30 °C): > 128 µM
C[N+]1=C2C(c3ccc(Cl)cc3)=[N+]([O-])c3ccccc3N2CCC1 — MIC (Clostridioides difficile): 4 to 32 µg/mL
C=C1NC(=O)C2CSCC3NC(=O)C(CSC(C)C(NC(=S)C(Cc4cnc[nH]4)NC(=O)c4csc(C(C)NC(C)=O)n4)C(=O)N[C@H](CC(C)C(=O)NC(=O)CC(C(=O)O)NC(=O)C(C)NC3=O)C(=O)N2)NC(=O)[C@@H]2CCCN2C(=O)[C@@H](CC(C)C)NC1=O (some centres unmarked) — MIC (Enterobacter aerogenes; ATCC 13048): > 32 µg/mL
CC[C@H](C)[C@H](NC(=O)[C@H](CCCCN)NC(=O)[C@H](CCCCN)NC(=O)[C@H](Cc1ccccc1)NC(=O)[C@H](Cc1ccccc1)NC(=O)[C@H](CCCCN)NC(=O)[C@H](CCCCN)NC(=O)[C@H](Cc1ccccc1)NC(=O)[C@H](CCCNC(=N)N)NC(=O)[C@@H](N)CCCCN)C(=O)N[C@@H](CCCCN)C(=O)N[C@@H](CCCCN)C(=O)N[C@@H](CO)C(=O)N[C@H](C(=O)N[C@@H](CCCCN)C(=O)N[C@@H](CCCCN)C(=O)N[C@@H](CCCNC(=N)N)C(=O)N[C@H](C(=O)N[C@@H](CCCCN)C(=O)N[C@@H](CCCCN)C(=O)N[C@@H](CC(C)C)C(=O)N[C@@H](Cc1ccccc1)C(=O)N[C@@H](CCCCN)C(=O)N[C@@H](CCCCN)C(=O)N1CCC[C@H]1C(=O)N[C@@H](CCCNC(=N)N)C(=O)N[C@H](C(=O)N[C@H](C(=O)N1CCC[C@H]1C(=O)N[C@H](C(=O)N[C@@H](CO)C(=O)N[C@H](C(=O)N1CCC[C@H]1C(=O)N[C@@H](Cc1ccccc1)C(=O)O)[C@@H](C)CC)[C@@H](C)CC)[C@@H](C)CC)C(C)C)C(C)C)C(C)C — MIC (Pseudomonas aeruginosa; broth microdilution; P2 clinical isolate; 20 h): 4 µg/mL
CC1COC2=C1C(=O)C(=O)c1c2ccc2c1C(OC(=O)CNC(=O)C(N)CCC(=O)O)CCC2(C)C (mixture of isomers) — MIC (Cutibacterium acnes; GDMCC 1.243; 48 h, anaerobic): 63 µM
CC[C@H](C)[C@H](NC(=O)[C@H](Cc1c[nH]c2ccccc12)NC(=O)[C@H](Cc1ccc(O)cc1)NC(=O)[C@H](CCCCN)NC(=O)[C@H](CC(C)C)NC(=O)[C@@H](N)CO)C(=O)N[C@@H](CCCNC(=N)N)C(=O)N[C@@H](Cc1ccc(O)cc1)C(=O)N[C@@H](CCCCN)C(=O)N[C@@H](CCCNC(=N)N)C(=O)N[C@@H](CCC(N)=O)C(=O)NCC(=O)N[C@@H](C)C(=O)N[C@@H](C)C(=O)N[C@@H](CCCNC(=N)N)C(=O)N[C@@H](Cc1ccccc1)C(N)=O — MIC (Enterobacter sp.; broth dilution; KCTC 2625): < 3.1 µM
COc1ccc(NC(=O)COc2cccc(OCC(C)C)c2)cc1 — MIC (Saccharomyces cerevisiae; S288c wild type): 2 µg/mL
O=C1NC2(CC2)COc2ncc(F)cc2[C@H]2COCCN2c2ccn3ncc1c3n2 — haematocrit (Sprague-Dawley rats, female, blood; oral, 2.5 mg/kg/day, end of recovery, 4-week subacute toxicity): 39.9 ± 1.9%
COc1ccc(C2=[N+]([O-])c3ccccc3N3CCN=C23)cc1 — MIC (Clostridioides difficile): 0.125 to 1 µg/mL
CC[C@H](C)[C@@H]1NC(=O)[C@H](CCCNC(=N)N)NC(=O)[C@H]([C@@H](C)O)NC(=O)[C@H](Cc2c[nH]c3ccccc23)NC(=O)[C@H](Cc2ccccc2)NC(=O)[C@H](Cc2c[nH]c3ccccc23)NC(=O)[C@H](CCCNC(=N)N)NC(=O)[C@H](CCCNC(=N)N)NC(=O)[C@H](CCCNC(=N)N)NC(=O)[C@H](Cc2ccccc2)NC(=O)CNC(=O)[C@H](CCCCN)NC(=O)[C@@H](NC(=O)[C@H](CCCNC(=N)N)NC(=O)CNC(=O)CN)CSSC[C@@H](C(N)=O)NC1=O — MIC (Botrytis cinerea; resazurin; synthetic fungal medium; with: KCl 100 mM): 1.5 to 3 µM
CC(C)C[C@H](NC(=O)[C@@H](NC(=O)[C@H](CCCNC(=N)N)NC(=O)[C@H](CCC(N)=O)NC(=O)[C@H](Cc1ccccc1)NC(=O)[C@H](Cc1ccc(O)cc1)NC(=O)[C@H](CC(N)=O)NC(=O)[C@H](Cc1c[nH]c2ccccc12)NC(=O)[C@@H](NC(=O)[C@H](CCCNC(=N)N)NC(=O)[C@H](CCCCN)NC(=O)[C@@H](N)Cc1ccccc1)C(C)C)C(C)C)C(=O)N[C@H](C(=O)N[C@@H](CCCCN)C(=O)N[C@@H](CCCCN)C(=O)N[C@@H](Cc1ccc(O)cc1)C(N)=O)C(C)C — MIC (Salmonella typhimurium; broth dilution; SL1344): 6.3 µM
CC[C@H](C)[C@@H]1NC(=O)[C@H](CO)NC(=O)[C@H](CCCCN)NC(=O)[C@@H]2CSSC[C@@H](C(=O)N[C@@H](Cc3ccc(O)cc3)C(N)=O)NC(=O)[C@H](CCCCN)NC(=O)[C@@H]3CSSC[C@H](NC(=O)[C@H](CCCNC(=N)N)NC(=O)[C@H](CC(C)C)NC(=O)[C@H](CC(=O)O)NC(=O)[C@H](CC(=O)O)NC(=O)[C@H](CCC(=O)O)NC(=O)[C@H](CC(N)=O)NC(=O)[C@H](Cc4c[nH]c5ccccc45)NC(=O)C(C)(CC)NC(=O)CNC(=O)[C@H](CC(N)=O)NC(=O)[C@@H](NC(=O)CNC(=O)[C@H](Cc4ccccc4)NC(=O)CN)CSSC[C@H](NC(=O)[C@H](Cc4ccc(O)cc4)NC(=O)CNC(=O)CNC(=O)[C@H](CCCCN)NC(=O)[C@H](Cc4ccc(O)cc4)NC(=O)[C@H]4CCCN4C(=O)[C@@H]4CCCN4C1=O)C(=O)N[C@@H](C)C(=O)N[C@@H](CCCCN)C(=O)N1CCC[C@@H]1C(=O)NCC(=O)N[C@@H](Cc1ccccc1)C(=O)N[C@@H](C(C)C)C(=O)N3)C(=O)N[C@@H](Cc1c[nH]cn1)C(=O)N[C@@H](CC(N)=O)C(=O)N[C@@H](Cc1c[nH]cn1)C(=O)N2 (some centres unmarked) — MIC (Streptococcus pneumoniae; broth microdilution; BS-441; 18 h): 0.25 µM
CC[C@H](C)[C@H](N)C(=O)N[C@@H](CCCNC(=N)N)C(=O)N[C@H](C(=O)N[C@@H](Cc1c[nH]c2ccccc12)C(=O)N[C@@H](Cc1ccccc1)C(=O)N[C@H](C(=O)N[C@@H](CCCCN)C(=O)N[C@H](C(=O)N[C@@H](CCCNC(=N)N)C(=O)N[C@@H](CCCCN)C(=O)N[C@@H](CCSC)C(=O)N[C@@H](CCCCN)C(=O)N[C@@H](C)C(=O)N[C@H](C(=O)N[C@@H](Cc1ccc(O)cc1)C(=O)N[C@@H](Cc1c[nH]cn1)C(=O)N[C@H](C(N)=O)[C@@H](C)O)[C@@H](C)CC)C(C)C)[C@@H](C)CC)C(C)C — MIC (Salmonella typhimurium; broth dilution; SL1344): 3.1 µM
[O-][N+]1=C(c2ccc(Cl)cc2)C2=NCCCCN2c2ccccc21 — MIC (Clostridioides difficile): 0.25 to 4 µg/mL
CC[C@H](C)[C@@H]1NC(=O)[C@H](CO)NC(=O)C(C)(CCCCN)NC(=O)[C@@H]2CSSC[C@@H](C(=O)N[C@@H](Cc3ccc(O)cc3)C(N)=O)NC(=O)[C@H](CCCCN)NC(=O)[C@@H]3CSSC[C@H](NC(=O)[C@H](CCCNC(=N)N)NC(=O)C(C)(CC(C)C)NC(=O)[C@H](CC(=O)O)NC(=O)[C@H](CC(=O)O)NC(=O)[C@H](CCC(=O)O)NC(=O)[C@H](CC(N)=O)NC(=O)[C@H](Cc4c[nH]c5ccccc45)NC(=O)C(C)(CC)NC(=O)CNC(=O)[C@H](CC(N)=O)NC(=O)[C@@H](NC(=O)CNC(=O)[C@H](Cc4ccccc4)NC(=O)CN)CSSC[C@H](NC(=O)[C@H](Cc4ccc(O)cc4)NC(=O)CNC(=O)CNC(=O)[C@H](CCCCN)NC(=O)[C@H](Cc4ccc(O)cc4)NC(=O)[C@H]4CCCN4C(=O)[C@@H]4CCCN4C1=O)C(=O)N[C@@H](C)C(=O)N[C@@H](CCCCN)C(=O)N1CCC[C@@H]1C(=O)NCC(=O)N[C@@H](Cc1ccccc1)C(=O)N[C@@H](C(C)C)C(=O)N3)C(=O)N[C@@H](Cc1c[nH]cn1)C(=O)NC(C)(C)C(=O)N[C@@H](Cc1c[nH]cn1)C(=O)N2 (some centres unmarked) — MIC (Streptococcus pneumoniae; broth microdilution; BS-441; 18 h): 0.5 µM
CC[C@H](C)[C@H](NC(=O)[C@H](CCCNC(=N)N)NC(=O)[C@H](CO)NC(=O)[C@H](Cc1ccc(O)cc1)NC(=O)[C@@H](NC(=O)[C@@H](NC(=O)[C@H](C)NC(=O)CNC(=O)[C@H](CCCCN)NC(=O)[C@H](CCCCN)NC(=O)CCNC(=O)CCCCCNC(=O)[C@H](CCCNC(=N)N)NC(=O)CCCCCNC(=O)[C@H](CCCNC(=N)N)NC(=O)[C@H](CCCNC(=N)N)NC(=O)CCCCCNC(=O)[C@H](CCCNC(=N)N)NC(=O)[C@H](CCCNC(=N)N)NC(=O)CCCCCNC(=O)[C@H](CCCNC(=N)N)NC(=O)[C@H](CCCNC(=N)N)NC(=O)CCCCCNC(=O)[C@@H](N)CCCNC(=N)N)C(C)C)[C@@H](C)O)C(=O)N[C@@H](CO)C(=O)NCC(=O)N[C@@H](CCC(N)=O)C(=O)N[C@@H](Cc1ccc(O)cc1)C(=O)N[C@@H](CCCCN)C(=O)O — MIC (Escherichia coli; ATCC 25922; 1 h, 37 °C, after 90% fetal bovine serum): 48 µM
O=C(O)CN(CC(=O)O)CP(=O)(O)O — MIC (Providencia stuartii; NDM-1 producer; 32 µg/mL, MIC of meropenem, with: meropenem): 0.25 µg/mL
CC[C@H](C)[C@H](NC(=O)[C@H](C)NC(=O)CNC(=O)[C@H](C)NC(=O)[C@H](CCCCN)NC(=O)[C@H](CO)NC(=O)[C@H](C)NC(=O)[C@H](CCSC)NC(=O)CN)C(=O)N[C@@H](C)C(=O)NCC(=O)N[C@@H](CCCCN)C(=O)N[C@H](C(=O)N[C@@H](C)C(=O)N[C@@H](CCCCN)C(=O)N[C@H](C(=O)N[C@@H](C)C(=O)N[C@@H](CC(C)C)C(=O)N[C@@H](CCCCN)C(=O)N[C@@H](C)C(=O)N[C@@H](CC(C)C)C(N)=O)C(C)C)[C@@H](C)CC — MIC (Escherichia coli; 3538, nalidixic acid-resistant, minimal salts medium; 18 h, 37 °C): 20 µg/mL
CCCCCC(=O)NCCCC[C@H](NC(=O)CCCCC)C(=O)N[C@@H](CCCCNC(=O)CCCCC)C(=O)NCC(=O)NCC(=O)NCC(=O)N[C@@H](CS)C(=O)N[C@@H](CCCNC(=N)N)C(=O)N[C@@H](CCCCN)C(=O)N1CCC[C@H]1C(=O)N[C@@H](CS)C(=O)N[C@@H](CCCNC(=N)N)C(=O)N[C@@H](CCCCN)C(=O)N1CCC[C@H]1C(N)=O — MIC (Candida tropicalis; broth microdilution; CGMCC 2.197, RPMI-1640; 48 h, 30 °C): 32 µM
OB(O)c1cnn(-c2cc(Cl)ncn2)c1 — MIC (Citrobacter freundii; bacterial growth; AmpC overproducer clinical isolate; without cefotaxime): 2050 µg/mL

A few entries again:
CC[C@H](C)[C@H](NC(=O)[C@H](Cc1c[nH]c2ccccc12)NC(=O)[C@H](Cc1ccc(O)cc1)NC(=O)[C@H](CCCCN)NC(=O)[C@H](CC(C)C)NC(=O)[C@@H](N)CO)C(=O)N[C@@H](CCCNC(=N)N)C(=O)N[C@@H](Cc1ccc(O)cc1)C(=O)N[C@@H](CCCCN)C(=O)N[C@@H](CCCNC(=N)N)C(=O)N[C@@H](CCC(N)=O)C(=O)NCC(=O)N[C@@H](C)C(=O)N[C@@H](C)C(=O)N[C@@H](CCCNC(=N)N)C(=O)N[C@@H](Cc1ccccc1)C(N)=O — MIC (Enterobacter sp.; broth dilution; KCTC 2625): < 3.1 µM
CC[C@H](C)[C@H](N)C(=O)N[C@@H](CCCNC(=N)N)C(=O)N[C@H](C(=O)N[C@@H](Cc1c[nH]c2ccccc12)C(=O)N[C@@H](Cc1ccccc1)C(=O)N[C@H](C(=O)N[C@@H](CCCCN)C(=O)N[C@H](C(=O)N[C@@H](CCCNC(=N)N)C(=O)N[C@@H](CCCCN)C(=O)N[C@@H](CCSC)C(=O)N[C@@H](CCCCN)C(=O)N[C@@H](C)C(=O)N[C@H](C(=O)N[C@@H](Cc1ccc(O)cc1)C(=O)N[C@@H](Cc1c[nH]cn1)C(=O)N[C@H](C(N)=O)[C@@H](C)O)[C@@H](C)CC)C(C)C)[C@@H](C)CC)C(C)C — MIC (Salmonella typhimurium; broth dilution; SL1344): 3.1 µM
